Results pooled from the literature.
Parts stem from different laboratories: compare values within a part only. Positions count from the first letter of the parent shown.

Sample 1 — target: CCNA2, cyclin fold, Cln2 fusion (human); technique: yeast growth competition, sequencing; medium: yeast; notes: weak parent motif; reference: not given; reading: higher = stronger binding
Starting sequence: SLBP docking peptide (human); ARYKRKLLINDFG
Substitution	normalised enrichment score
ARYKRKLLINDFI [G13I]	1.63
ARYKRKLFINDFG [L8F]	1.8
ARYKRKLLINDPG [F12P]	0.888
QRYKRKLLINDFG [A1Q]	-0.0598
ARYKRKLLWNDFG [I9W]	2
ARYKRKLLINTFG [D11T]	2.08
ARYKRKLLINDFN [G13N]	2.29
ATYKRKLLINDFG [R2T]	1.87
ARLKRKLLINDFG [Y3L]	1.49
ARYNRKLLINDFG [K4N]	1.31
ARYKRKLLDNDFG [I9D]	0.346

Sample 2 — target: CREBZF, bZIP domain (human); technique: DHFR protein complementation; medium: yeast; reference: wild-type JUN-FOS pair; reading: higher = stronger binding
Notes: single substitutions, most at no-binding floor
Starting sequence: JUN, bZIP domain (human); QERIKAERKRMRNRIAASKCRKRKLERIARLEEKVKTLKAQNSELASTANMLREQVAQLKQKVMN; partner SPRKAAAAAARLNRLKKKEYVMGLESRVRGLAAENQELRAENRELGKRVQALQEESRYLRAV
Substitution	binding fitness
K39H	-1.49 natural log
N42W	-1.51 natural log
T37G	-1.42 natural log
T48K	-1.56 natural log
S47C	-1.35 natural log

Sample 3 — technique: RNA Bind-n-Seq; molecule type: RNA; medium: in vitro; concentration: 200 nM; notes: whole 134-nt RNA, ends assumed; with: 150 mM KCl; reference: input library; reading: higher = stronger binding
Target: Fragile X messenger ribonucleoprotein 1, C-terminal low-complexity region (Fmr1, Mus musculus, UniProt P35922)
Strand	log2 enrichment
GGGAGUUCUACAGUCCGACGAUCUCAAGUCCUGUGCUACACAUCGUAUGUACCGAAUCGGGGUUGGGGUUGGGGUUGGAAAGUAUUAUGUUACGCCGUUCGGAUCUGCACUUCUGGAAUUCUCGGGUGUCAAGG	0.231
GGGAGUUCUACAGUCCGACGAUCCCUCAAGUCCUGUGCUACACAUCGUAUGUACCGAAUCGGGGAGGGAGGAGGGGAAAGUAUUAUGUUACGCCGUUCGGAUCUGCACUUCCAUGGAAUUCUCGGGUGUCAAGG	1.2
GGGAGUUCUACAGUCCGACGAUCUGGCCCUGGUGGCAUACGGGGAGGAAGAGGUGGCCUCAUGGAUCGUGGUGGUCCCGGUGGAAUGUUCAGAGGUGGCCGUGGUGGAGACAGUGGAAUUCUCGGGUGUCAAGG	0.017
GGGAGUUCUACAGUCCGACGAUCUAACUUUAGAGGAGGAUCUGAUGGAUAUGGCAGUGGACGUGGAUAUGGGGAUGGCUAUAAUGGGUAUGGAGGAGGACCUGGAGGUGGCAAUGGAAUUCUCGGGUGUCAAGG	0.32

Sample 4 — technique: protein-binding microarray; molecule type: double-stranded DNA, one strand shown; medium: in vitro; concentration: 2200 nM top; notes: 60-bp whole probe; with: salmon DNA 0.4 mg/ml; reference: random background probes; reading: higher = stronger binding; all sequences stand within: GCCTAGCAC … GTCTTGATTCGCTTGACGCTGCTG
Target: Interferon regulatory factor 7, full length, phosphomimetic (IRF7, Homo sapiens, UniProt Q92985, residues 1-503, S471D/S472D/S475D/S476D/S477D/S483D/S484D/S487D)
Chain of UniProt Q92985 (whole entry, unmodified, looked up): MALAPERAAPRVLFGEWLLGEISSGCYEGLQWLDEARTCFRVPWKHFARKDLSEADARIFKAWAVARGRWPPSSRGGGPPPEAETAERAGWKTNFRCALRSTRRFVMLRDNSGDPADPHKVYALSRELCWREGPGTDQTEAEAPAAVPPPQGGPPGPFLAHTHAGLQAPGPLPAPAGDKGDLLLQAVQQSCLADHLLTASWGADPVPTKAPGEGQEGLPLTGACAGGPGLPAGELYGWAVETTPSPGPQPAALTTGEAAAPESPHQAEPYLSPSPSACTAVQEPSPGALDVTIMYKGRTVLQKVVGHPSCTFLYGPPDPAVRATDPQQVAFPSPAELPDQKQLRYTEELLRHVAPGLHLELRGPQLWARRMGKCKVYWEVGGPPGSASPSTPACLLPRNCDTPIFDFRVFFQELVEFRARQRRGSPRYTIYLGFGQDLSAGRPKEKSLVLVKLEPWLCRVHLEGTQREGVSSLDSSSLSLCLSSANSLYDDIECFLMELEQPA
Strand	fitted relative affinity [z-score]
TTAGGTTCCCTTTTCCTTTGGTGCTAG	3.47
TTAGGTATCGACTTTCGGTCAGTGCTA	2.85
AGCACTTTGGCATGTCTTGACGTGCTA	-0.423
TTAGGTTTCGACTATCGATTAGTGCTA	3.04
TTAGGTTTTGGTCTCGGTTAGTGCTAG	1.41
TTAGGTATTCTTTTCCTTTAGTGCTAG	1.27

Single results of other studies
Substance	target	test	test system	conditions	scale	quantity	value
PhoQ, residues 284 288 289 292 302 303 AMDMFI	PhoP, residues 12 14 15 18 19 NFCKL (Escherichia coli, UniProt P23836)	Sort-seq, item: YFP reporter	E. coli	PhoQ-PhoP variant library, with: 10 µM Mg2+	reference: high Mg2+ state, higher = stronger signaling	fold induction	0.447

Repeated from above (sample 4):
Strand	fitted relative affinity [z-score]
TTAGGTTCCCTTTTCCTTTGGTGCTAG	3.47
TTAGGTATCGACTTTCGGTCAGTGCTA	2.85
